Results from different studies.
Values joined by “and” are separate records of one study, mostly repeats; a detail may differ. pIC50: −log10 of the molar value.
PPARG: Peroxisome proliferator-activated receptor gamma (PPARG, Homo sapiens, UniProt P37231)
UniProt P37231, sequence (whole entry, looked up): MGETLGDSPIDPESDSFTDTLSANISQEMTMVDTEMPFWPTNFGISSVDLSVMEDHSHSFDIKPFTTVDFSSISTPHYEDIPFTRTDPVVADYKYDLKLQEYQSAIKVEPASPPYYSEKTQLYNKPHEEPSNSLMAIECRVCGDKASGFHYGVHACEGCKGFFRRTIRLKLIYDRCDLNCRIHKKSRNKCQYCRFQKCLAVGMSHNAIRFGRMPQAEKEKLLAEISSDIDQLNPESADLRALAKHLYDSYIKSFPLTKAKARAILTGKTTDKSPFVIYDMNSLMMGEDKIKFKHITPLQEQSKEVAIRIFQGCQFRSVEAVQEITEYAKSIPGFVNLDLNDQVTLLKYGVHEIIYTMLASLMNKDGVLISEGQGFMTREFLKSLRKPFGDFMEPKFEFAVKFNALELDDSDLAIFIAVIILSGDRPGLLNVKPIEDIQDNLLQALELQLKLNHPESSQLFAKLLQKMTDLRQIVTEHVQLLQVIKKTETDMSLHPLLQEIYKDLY

For O=C(c1ccccc1)N1C(c2ccc(OCC3CCN(CCCF)C3)cc2)c2ccc(O)cc2CC12CC2 (stereo not shown), the half-life was 3.16 h and 5.07 h (C57BL/6J mouse, plasma; oral, 25 mg/kg).
With C/C(N)=N/C(=N\S(=O)(=O)c1ccc(C(F)(F)F)cc1)N1C[C@H](c2ccccc2)C(c2ccc(Cl)cc2)=N1 the half-life was 1.4 h (male C57BL/6 mouse, lung; intravenous, 10 mg/kg).
For Cc1c(Cc2ccc(OC(C)C(=O)O)cc2)c2ccc(C(=O)N[C@@H](C)c3ccc(C(C)(C)C)cc3)cc2n1C (stereo partly shown), the pIC50 was 6.40 (PPARG; ligand displacement, TR-FRET).
C=C(NC(=O)c1csc(-c2nc3c(cc2O)-c2nc(cs2)C(=O)NC(C(C)O)C(=O)NC(=C(C)OC)c2nc(cs2)C(=O)NC2c4nc(cs4)C(=O)NC(COC(=O)c4c5c6c(cccc6n4O)COC(=O)C(OC4CC(C)(O)C(N(C)C)C(C)O4)C2OC5)c2nc-3cs2)n1)C(N)=O (stereo not shown) has a half-life of 5.47 h (metabolic stability; dog, liver microsomes; 2 µM).
CCC(CC)CNC(=N)NC(=N)NCCCCCCNC(=N)NC(=N)NCC(CC)CC gave a half-life of 31.5 h (metabolic stability; dog, liver microsomes; 2 µM).
With Cc1c(Cc2ccc(OC(C)(C)C(=O)O)cc2)c2ccc(C(=O)N[C@@H](C)c3ccc(C4CC4)cc3)cc2n1C the pIC50 was 8.15 (PPARG; ligand displacement, TR-FRET).
With COc1cc2c(cc1OC)[C@H]1C[C@@H](O)[C@H](CC(C)C)CN1CC2 the half-life was 5.68 h (refers to: compound; human, male, plasma; oral, 25 mg [14C]-tetrabenazine, geometric mean).
With C[C@]12C[C@H](c3ccc(S(C)(=O)=O)cc3)C3=C4CC[C@@H](O)C=C4CC[C@H]3[C@@H]1CC[C@@]2(O)C(F)(F)C(F)(F)F the half-life was 68.1 h (human, plasma; oral, 5 mg multiple doses, day 28).
CCCCCCCOc1ccc(CC[C@](N)(CO)COP(=O)(O)O)cc1C(F)(F)F has a half-life of 376 h (healthy human males, plasma; oral, 0.5 mg, day 21).
COC1CN([C@H]2CC[C@H]([C@@]3(C)Oc4c(Cl)cc(C(=O)NCc5c(SC)cc(C)[nH]c5=O)c(C)c4O3)CC2)C1: “log2 fold change” 21.5 (RNA-seq, refers to: CADM3; human, whole blood; dose not given, 24 h; reference: pretreatment baseline).
For C=CC(=O)Nc1cccc(Cn2ncc3cnc(Nc4cnn(CCOC)c4)nc32)c1, the half-life was 0.444 h (metabolic stability; male beagle dog, hepatocytes).
With O=S(=O)(NCc1ccncc1)c1ccc(C2CCCCC2)cc1 the half-life was 3.7 h (C57BL/6J mouse, male, cerebral cortex; intraperitoneal, 0.3 mg/kg).
C=CC(=O)N1CCCC(n2c(=O)c3ncccc3n(Cc3ccc(Oc4ccccc4)cc3)c2=O)C1 (stereo not shown) has a half-life of 0.813 h (metabolic stability; male beagle dog, hepatocytes; 1 µM).
